Results of several laboratories.
Numbers after ± are the reported error.

CCCC[C@@H]1NC(=O)[C@H](Cc2ccc(O)cc2)NC(=O)[C@@H]2CCCN2C(=O)[C@H](CC(=O)O)NC(=O)[C@H](C)NC(=O)[C@H](Cc2ccccc2)NC(=O)[C@@H]2CSCCC(=O)N3CN(CN(C3)C(=O)CCSC[C@@H](C(=O)N[C@@H](C)C(N)=O)NC1=O)C(=O)CCSC[C@H](NC(C)=O)C(=O)N[C@@H](CC(C)(C)C)C(=O)N1CCC[C@H]1C(=O)N[C@@H](CCC(=O)O)C(=O)N[C@H](CCCCNC(=O)CCc1cn(CCOCCOCCOCCOCCOCCC(=O)N[C@H]3CSCCC(=O)N4CN5CN(C4)C(=O)CCSC[C@H](NC(=O)[C@@H](CC(=O)O)NC(=O)[C@H](Cc4cccc6ccccc46)NC(=O)[C@@H]4CCCN4C3=O)C(=O)N[C@@H](CCSC)C(=O)N[C@@H](CCCCNC(=N)N)C(=O)N[C@@H](CC(=O)O)C(=O)N[C@@H](Cc3c[nH]c4ccccc34)C(=O)N[C@@H](CO)C(=O)N[C@@H]([C@@H](C)O)C(=O)N3CCC[C@H]3C(=O)N3C[C@H](O)C[C@H]3C(=O)N[C@@H](Cc3c[nH]c4ccccc34)C(=O)N[C@H](C(N)=O)CSCCC5=O)nn1)C(=O)N1CCC[C@H]1C(=O)N[C@@H](Cc1ccc(O)cc1)C(=O)N2 — unbound Vdss (Sprague-Dawley rat): 2.8 L/kg
Cc1c(Br)cc(NC(=O)C(c2ccccc2)S(=O)(=O)O)cc1Br (centres unmarked) — unbound Cmax (Sprague-Dawley rats, plasma; oral, 30 mg/kg): < 0.043 µM
C[C@@H](NC(=O)c1ccc(C#Cc2cccc(F)c2)cn1)C(C)(C)O — unbound brain concentration (rats; i.p., 10 mg/kg, 2 h): 0.022 ± 0.0015 µM
CCCC[C@@H]1NC(=O)[C@H](Cc2ccc(O)cc2)NC(=O)[C@@H]2CCCN2C(=O)[C@H](CC(=O)O)NC(=O)[C@H](C)NC(=O)[C@H](Cc2ccccc2)NC(=O)[C@@H]2CSCCC(=O)N3CN(CN(C3)C(=O)CCSC[C@@H](C(=O)N[C@@H](C)C(N)=O)NC1=O)C(=O)CCSC[C@H](NC(C)=O)C(=O)N[C@@H](CC(C)(C)C)C(=O)N1CCC[C@H]1C(=O)N[C@@H](CCC(=O)O)C(=O)N[C@H](CCCCNC(=O)CCc1cn(CCOCCOCCOCCOCCOCCOCCOCCOCCOCCOCCNC(=O)c3cc(C(=O)NCCOCCOCCOCCOCCOCCOCCOCCOCCOCCOCCn4cc(CCC(=O)NCCCC[C@H]5NC(=O)[C@H](CCC(=O)O)NC(=O)[C@@H]6CCCN6C(=O)[C@H](CC(C)(C)C)NC(=O)[C@@H](NC(C)=O)CSCCC(=O)N6CN7CN(C6)C(=O)CCSC[C@H](NC(=O)[C@H](Cc6ccc(O)cc6)NC(=O)[C@@H]6CCCN6C5=O)C(=O)N[C@@H](Cc5ccccc5)C(=O)N[C@@H](C)C(=O)N[C@@H](CC(=O)O)C(=O)N5CCC[C@H]5C(=O)N[C@@H](Cc5ccc(O)cc5)C(=O)N[C@@H](CCCC)C(=O)N[C@H](C(=O)N[C@@H](C)C(N)=O)CSCCC7=O)nn4)cc(C(=O)NCCOCCOCCOCCOCCOCCOCCOCCOCCOCCOCCn4cc(CCC(=O)N[C@H]5CSCCC(=O)N6CN7CN(C6)C(=O)CCSC[C@H](NC(=O)[C@@H](CC(=O)O)NC(=O)[C@H](Cc6cccc8ccccc68)NC(=O)[C@@H]6CCCN6C5=O)C(=O)N[C@@H](CCSC)C(=O)N[C@@H](CCCCNC(=N)N)C(=O)N[C@@H](CC(=O)O)C(=O)N[C@@H](Cc5c[nH]c6ccccc56)C(=O)N[C@@H](CO)C(=O)N[C@@H]([C@@H](C)O)C(=O)N5CCC[C@H]5C(=O)N5C[C@H](O)C[C@H]5C(=O)N[C@@H](Cc5c[nH]c6ccccc56)C(=O)N[C@H](C(N)=O)CSCCC7=O)nn4)c3)nn1)C(=O)N1CCC[C@H]1C(=O)N[C@@H](Cc1ccc(O)cc1)C(=O)N2 — unbound clearance (Sprague-Dawley rat): 3.06 L/h/kg
COCC(=O)N1CCC[C@H](C(=O)NCc2nc(-c3ccccc3)cs2)C1 — unbound AUC (Sprague-Dawley rat, male, plasma; oral, 3 mg/kg): 2100 nM·h
Cn1cncc1[C@@](N)(c1ccc(Cl)cc1)c1ccc2c(c1)c(-c1cccc(Cl)c1)cc(=O)n2C — unbound fraction (cancer patients, moderate hepatic impairment, plasma; 200 mg twice daily): 0.0093
CC(C)(N)COCC(=O)N1CCC[C@H](C(=O)NCc2nc(-c3ccc(C(F)(F)F)cc3)cs2)C1 — unbound hepatic CLint (Sprague-Dawley rat, male, plasma; intravenous, 1 mg/kg): 16.2 L/h/kg
COCCc1ccc(OCC(O)CNC(C)C)cc1 (centres unmarked) — unbound intrinsic clearance (Sprague-Dawley rat, male): 158 L/h/kg

A few entries again:
COCC(=O)N1CCC[C@H](C(=O)NCc2nc(-c3ccccc3)cs2)C1 — unbound AUC (Sprague-Dawley rat, male, plasma; oral, 3 mg/kg): 2100 nM·h
